Assay results collected from several papers.
Each line is one published result; not all experiments were run side by side. Several values in a cell are separate wells, animals, samples, runs or records. Numbers after ± are the reported error.
Genome polyprotein NS2B-NS3 protease: Genome polyprotein, NS2B-NS3 protease (dengue virus type 2, UniProt P29990)
UniProt O43781, sequence (whole entry, looked up): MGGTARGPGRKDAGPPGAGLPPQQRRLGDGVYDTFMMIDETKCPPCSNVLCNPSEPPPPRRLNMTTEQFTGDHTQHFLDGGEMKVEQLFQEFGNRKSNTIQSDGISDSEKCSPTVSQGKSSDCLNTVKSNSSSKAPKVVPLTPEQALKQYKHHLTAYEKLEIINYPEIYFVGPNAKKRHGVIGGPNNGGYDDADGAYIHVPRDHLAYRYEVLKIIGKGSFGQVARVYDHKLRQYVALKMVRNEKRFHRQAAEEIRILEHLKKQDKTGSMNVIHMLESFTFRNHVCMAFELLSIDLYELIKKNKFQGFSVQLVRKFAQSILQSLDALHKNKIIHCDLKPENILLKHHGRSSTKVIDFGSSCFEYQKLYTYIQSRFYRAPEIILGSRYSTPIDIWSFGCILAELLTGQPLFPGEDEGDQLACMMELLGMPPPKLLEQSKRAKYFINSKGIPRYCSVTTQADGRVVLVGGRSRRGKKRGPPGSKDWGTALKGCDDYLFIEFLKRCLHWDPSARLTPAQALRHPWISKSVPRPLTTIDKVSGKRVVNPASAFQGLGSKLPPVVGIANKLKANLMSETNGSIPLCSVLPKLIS

SMILES	tested on	test	test system	conditions	scale	endpoint	value
COC1CN([C@H]2CC[C@H]([C@@]3(C)Oc4c(Cl)cc(C(=O)NCc5c(SC)cc(C)[nH]c5=O)c(C)c4O3)CC2)C1	–	RNA-seq, measured: TIMP3 mouse homolog	mouse, HT-1376 xenograft, whole blood	dose not given	reference: vehicle	log2 fold change	0.0839
Cc1c(C(=O)Nc2cccc(C(N)=O)c2)cnn1-c1ccccc1	Genome polyprotein NS2B-NS3 protease	reporter gene	HeLa	–	–	EC50	29 µM
C[n+]1ccc(/C=N/NC(=O)c2cncc(C(=O)N/N=C/c3cc[n+](C)cc3)n2)cc1	telomeric G4 DNA hybrid-2	FRET melting	–	1 µM, DNA 0.2 µM, together with: duplex DNA competitor 10 µM	–	ΔTm	6.2 ± 0.6 °C
Cc1ncsc1-c1ccc(C(C)NC(=O)C2CC(O)CN2C(=O)C(NC(=O)CCCCCCCCCCN2CCCC(Nc3ncc(Cl)c(Nc4ccccc4S(=O)(=O)C(C)C)n3)C2)C(C)(C)C)cc1 (stereo not drawn)	22Rv1	RNA-seq, measured: TRIM38 mRNA	–	concentration not given	reference: DMSO	log2 fold change	-1.1
O=C(Nc1cnccc1-c1ccc([18F])nc1)c1ccnc(NC(=O)C2CC2)c1	–	–	FVB/NJ mice, both sexes, liver	intravenous, 25 min, median, no P-gp inhibitor	–	SUV	8.97
O=C(Nc1cccc(N2CCNCC2)c1)c1cc(-c2ccccc2)n(-c2ccccc2)n1	Genome polyprotein NS2B-NS3 protease	reporter gene	HeLa	–	–	EC50	> 16 µM
O=C(N/N=C/c1ccc(C[n+]2ccccc2)cc1)c1cccc(C(=O)N/N=C/c2ccc(C[n+]3ccccc3)cc2)n1	telomeric G4 DNA hybrid-2	FRET melting	–	1 µM, DNA 0.2 µM, together with: duplex DNA competitor 10 µM	–	ΔTm	11.9 ± 2.1 °C
CNS(=O)(=O)Nc1nccc(Cc2c(C)c3ccc(Oc4ncccc4F)cc3oc2=O)c1F	HuCCT-1	cell viability	–	7 days	–	IC50	> 1 µM
CC(C)(C)c1cc(-c2ccc3cccnc3n2)nc(-c2ccc3cccnc3n2)c1.[Cl-].[Cl-].[Ru+2].c1ccc2cc3nc4c5cccnc5c5ncccc5c4nc3cc2c1	B16-F10	resazurin	–	together with: light 733 nm, 100 J/cm2	reference: dark EC50 over light EC50	phototoxicity index	4
CCCC[C@H](NC(=O)COCCOCCNC(=O)CN1CCN(CC(=O)O)CCN(CC(=O)O)CC1)C(=O)N[C@H]1CC(=O)NCCCC[C@@H](C(N)=O)NC(=O)[C@H](Cc2c[nH]c3ccccc23)NC(=O)[C@H](CCCNC(=N)N)NC(=O)[C@@H](Cc2ccccc2)NC(=O)[C@H](Cc2c[nH]cn2)NC1=O [technetium-99m labelled]	–	–	C57 mouse, tumor	intravenous, 0.037 MBq, 4 h	–	tissue uptake	20.3 ± 3.23 %ID/g
C[n+]1ccc(/C=N/NC(=O)c2cccc(C(=O)N/N=C/c3cc[n+](C)cc3)c2)cc1	telomeric G4 DNA hybrid-2	FRET melting	–	1 µM, DNA 0.2 µM	–	ΔTm	2.5 ± 1.5 °C
C=CC(=O)N1[C@H](c2ccc3c(c2)OCO3)c2[nH]c3ccccc3c2C[C@@H]1C(=O)N1CCN(C)CC1	human cyclin E1 N112C-3xFLAG:CDK2	co-IP with TMT proteomics, measured: TRIM21	–	concentration not given, P19474	reference: wild type DMSO	relative co-enrichment	90%
N=C(N)NCCC[C@@H]1NC(=O)[C@H](CCCNC(=N)N)NC(=O)[C@@H](C(c2ccccc2)c2ccccc2)NC(=O)[C@H](Cc2c[nH]c3ccccc23)NC(=O)[C@@H](C(c2ccccc2)c2ccccc2)NC(=O)[C@@H](CCCNC(=N)N)NC(=O)[C@@H](CCCNC(=N)N)NC1=O	Aspergillus fumigatus	fungal growth	–	–	–	MIC	> 64 µg/mL
C[n+]1ccc(/C=N/NC(=O)c2ccc3ccc(C(=O)N/N=C/c4cc[n+](C)c5ccccc45)nc3n2)c2ccccc21	telomeric G4 DNA hybrid-2	FRET melting	–	1 µM, DNA 0.2 µM, together with: duplex DNA competitor 10 µM	–	ΔTm	26.7 ± 1.4 °C
CC(C)C[C@H](NC(=O)[C@H](Cc1ccc(O)cc1)NC(=O)[C@@H](CCCNC(=N)N)NC(=O)[C@@H](CO)NC(=O)[C@H](Cc1ccccc1)NC(=O)[C@H](CC1CCCCC1)NC(=O)[C@H](CC(=O)O)NC(=O)CN1CCN(CC(=O)O)CCN(CC(=O)O)CCN(CC(=O)O)CC1)C(=O)N[C@@H](Cc1c[nH]c2ccccc12)C(=O)N[C@@H](CO)C(=O)O [copper-64 labelled]	–	–	human, adrenal	concentration not given, 24 h	–	activity concentration	837 Bq/mL and 1080 Bq/mL and 766 Bq/mL and 737 Bq/mL and 937 Bq/mL and 618 Bq/mL
Nc1ncc(-c2cc(-c3cnn(CC(F)(F)F)c3)ncc2F)nc1C(=O)NC1CNCC(F)C1 (stereo not drawn)	BTK	KINOMEscan	–	1 µM	reference: DMSO control	remaining binding	94%
CN1CCCNC(=O)c2cccc(c2)C(=O)NCCCN(C)CCCNc2cccc3c2C(=O)c2cccc(c2C3=O)NCCC1	SAS	RNA-Seq, measured: HJURP mRNA	–	1 µM, 6 h	reference: untreated cells	log2 fold change	-0.652
C[n+]1ccc(/C=N/NC(=O)c2cncc(C(=O)N/N=C/c3cc[n+](C)c4ccccc34)n2)c2ccccc21	telomeric G4 DNA hybrid-2	FRET melting	–	1 µM, DNA 0.2 µM	–	ΔTm	23.9 ± 0.2 °C
Cc1nn(-c2cccc(N)c2)c(=O)c2cnc(Nc3ccc(N4CCNCC4)cc3)nc12	Dual specificity tyrosine-phosphorylation-regulated kinase 3 (DYRK3, Homo sapiens, UniProt O43781)	enzyme activity, inhibitor	–	–	–	IC50	> 10 µM
CC(=O)[O-].O.O.O.O.[Ni+2].[O-]c1ccc(Br)cc1C=NCCN1CCOCC1	–	FRAP	–	120 µM	–	ferric reducing power	25.9%
C=CC(=O)Nc1cccc(Cn2ncc3cnc(Nc4cnn(CCOC)c4)nc32)c1	MAK human	binding, KINOMEscan	–	100 nM	lower = stronger binding	percent of control	97%

Excerpt of the above:
SMILES	tested on	test	test system	conditions	scale	endpoint	value
CN1CCCNC(=O)c2cccc(c2)C(=O)NCCCN(C)CCCNc2cccc3c2C(=O)c2cccc(c2C3=O)NCCC1	SAS	RNA-Seq, measured: HJURP mRNA	–	1 µM, 6 h	reference: untreated cells	log2 fold change	-0.652
